{"data": "Measured values from different studies", "note": "A part holds a random share of what one study measured. “And” joins repeats or separate records; there may be more than shown.", "sequence of UniProt O96017 (whole entry, looked up)": "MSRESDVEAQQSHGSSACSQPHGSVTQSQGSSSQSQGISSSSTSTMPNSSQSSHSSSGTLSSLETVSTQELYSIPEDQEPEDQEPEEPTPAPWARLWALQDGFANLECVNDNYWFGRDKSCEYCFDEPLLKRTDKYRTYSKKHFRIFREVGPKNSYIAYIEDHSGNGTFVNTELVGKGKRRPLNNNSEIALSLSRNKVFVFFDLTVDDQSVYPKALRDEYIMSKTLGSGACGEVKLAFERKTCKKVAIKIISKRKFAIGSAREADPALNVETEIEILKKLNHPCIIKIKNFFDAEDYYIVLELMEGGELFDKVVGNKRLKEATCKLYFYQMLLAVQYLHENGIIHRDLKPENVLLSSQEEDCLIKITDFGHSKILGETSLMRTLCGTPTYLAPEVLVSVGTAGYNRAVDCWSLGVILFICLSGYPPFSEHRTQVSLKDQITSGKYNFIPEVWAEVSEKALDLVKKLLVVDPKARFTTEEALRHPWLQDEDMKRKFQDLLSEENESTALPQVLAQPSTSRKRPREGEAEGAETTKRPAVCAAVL", "sequence of UniProt Q32MK0 (whole entry, looked up)": "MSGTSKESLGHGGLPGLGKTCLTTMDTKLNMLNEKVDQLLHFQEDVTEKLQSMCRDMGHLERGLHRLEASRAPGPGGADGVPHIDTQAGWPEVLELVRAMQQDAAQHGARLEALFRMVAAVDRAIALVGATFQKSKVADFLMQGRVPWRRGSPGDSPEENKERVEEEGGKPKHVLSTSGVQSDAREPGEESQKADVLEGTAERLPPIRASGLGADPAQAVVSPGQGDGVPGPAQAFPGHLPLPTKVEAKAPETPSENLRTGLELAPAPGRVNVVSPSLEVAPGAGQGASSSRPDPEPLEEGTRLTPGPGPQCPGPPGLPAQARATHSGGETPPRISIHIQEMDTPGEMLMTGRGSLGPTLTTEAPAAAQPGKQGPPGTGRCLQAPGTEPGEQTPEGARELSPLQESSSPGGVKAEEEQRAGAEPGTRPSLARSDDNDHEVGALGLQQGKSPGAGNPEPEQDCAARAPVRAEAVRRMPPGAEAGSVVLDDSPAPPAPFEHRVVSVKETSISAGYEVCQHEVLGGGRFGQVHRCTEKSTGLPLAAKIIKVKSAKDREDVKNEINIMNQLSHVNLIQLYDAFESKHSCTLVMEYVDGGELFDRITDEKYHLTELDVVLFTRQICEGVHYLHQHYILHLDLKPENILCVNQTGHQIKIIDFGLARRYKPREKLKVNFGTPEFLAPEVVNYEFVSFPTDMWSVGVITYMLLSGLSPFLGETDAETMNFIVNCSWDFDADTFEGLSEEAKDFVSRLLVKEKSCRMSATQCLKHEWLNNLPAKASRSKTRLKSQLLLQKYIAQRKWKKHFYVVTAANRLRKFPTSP", "sequence of UniProt P42336 (whole entry, unmodified, looked up)": "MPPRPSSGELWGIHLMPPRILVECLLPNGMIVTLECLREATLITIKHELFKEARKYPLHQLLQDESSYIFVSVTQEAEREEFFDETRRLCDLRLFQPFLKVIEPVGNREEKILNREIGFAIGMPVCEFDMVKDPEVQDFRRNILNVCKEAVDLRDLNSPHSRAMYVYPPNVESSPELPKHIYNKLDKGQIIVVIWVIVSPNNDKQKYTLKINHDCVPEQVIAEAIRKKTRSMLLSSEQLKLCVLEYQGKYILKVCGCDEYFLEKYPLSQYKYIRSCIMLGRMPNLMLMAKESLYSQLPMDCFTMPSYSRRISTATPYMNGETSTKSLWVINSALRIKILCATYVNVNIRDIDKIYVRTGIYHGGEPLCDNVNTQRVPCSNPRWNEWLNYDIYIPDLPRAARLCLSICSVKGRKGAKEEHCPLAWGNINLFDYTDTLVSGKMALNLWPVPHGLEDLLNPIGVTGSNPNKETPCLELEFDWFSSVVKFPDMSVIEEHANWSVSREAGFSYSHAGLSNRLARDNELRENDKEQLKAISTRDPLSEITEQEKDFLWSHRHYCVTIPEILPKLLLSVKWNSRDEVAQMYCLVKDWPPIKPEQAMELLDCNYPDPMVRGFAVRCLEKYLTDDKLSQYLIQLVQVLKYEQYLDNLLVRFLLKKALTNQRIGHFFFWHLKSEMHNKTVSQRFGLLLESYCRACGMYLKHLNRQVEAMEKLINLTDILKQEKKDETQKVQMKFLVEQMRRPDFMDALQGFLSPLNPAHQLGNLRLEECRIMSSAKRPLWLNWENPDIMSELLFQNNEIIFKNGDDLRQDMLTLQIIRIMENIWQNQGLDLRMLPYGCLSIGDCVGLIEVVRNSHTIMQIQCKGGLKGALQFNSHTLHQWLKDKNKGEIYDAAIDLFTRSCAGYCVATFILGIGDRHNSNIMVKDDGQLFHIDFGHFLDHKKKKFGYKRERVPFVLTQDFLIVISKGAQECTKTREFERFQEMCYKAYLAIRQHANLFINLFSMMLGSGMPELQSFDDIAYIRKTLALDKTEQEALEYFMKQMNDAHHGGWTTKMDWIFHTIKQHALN", "sequence of UniProt O15075 (whole entry, looked up)": "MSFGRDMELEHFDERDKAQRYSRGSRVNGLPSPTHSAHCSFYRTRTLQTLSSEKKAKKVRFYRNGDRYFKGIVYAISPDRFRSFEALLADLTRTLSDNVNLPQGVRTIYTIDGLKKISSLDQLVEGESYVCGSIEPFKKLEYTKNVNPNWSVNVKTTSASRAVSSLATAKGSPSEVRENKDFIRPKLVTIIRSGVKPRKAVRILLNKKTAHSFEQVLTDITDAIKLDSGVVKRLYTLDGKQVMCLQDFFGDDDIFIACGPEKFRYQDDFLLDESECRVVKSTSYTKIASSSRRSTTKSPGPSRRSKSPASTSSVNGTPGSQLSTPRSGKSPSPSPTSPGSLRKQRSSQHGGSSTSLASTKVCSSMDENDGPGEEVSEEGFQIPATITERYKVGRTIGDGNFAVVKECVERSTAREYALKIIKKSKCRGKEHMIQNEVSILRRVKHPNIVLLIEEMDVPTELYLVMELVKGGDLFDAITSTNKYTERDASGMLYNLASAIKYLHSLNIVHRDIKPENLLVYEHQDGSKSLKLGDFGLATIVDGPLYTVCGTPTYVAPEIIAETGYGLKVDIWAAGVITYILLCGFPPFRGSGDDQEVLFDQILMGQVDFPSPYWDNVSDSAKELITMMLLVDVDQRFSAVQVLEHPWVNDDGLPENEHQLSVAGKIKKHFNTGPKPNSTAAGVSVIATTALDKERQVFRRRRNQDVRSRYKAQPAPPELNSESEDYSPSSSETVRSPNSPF", "sequence of UniProt Q8IWQ3 (whole entry, looked up)": "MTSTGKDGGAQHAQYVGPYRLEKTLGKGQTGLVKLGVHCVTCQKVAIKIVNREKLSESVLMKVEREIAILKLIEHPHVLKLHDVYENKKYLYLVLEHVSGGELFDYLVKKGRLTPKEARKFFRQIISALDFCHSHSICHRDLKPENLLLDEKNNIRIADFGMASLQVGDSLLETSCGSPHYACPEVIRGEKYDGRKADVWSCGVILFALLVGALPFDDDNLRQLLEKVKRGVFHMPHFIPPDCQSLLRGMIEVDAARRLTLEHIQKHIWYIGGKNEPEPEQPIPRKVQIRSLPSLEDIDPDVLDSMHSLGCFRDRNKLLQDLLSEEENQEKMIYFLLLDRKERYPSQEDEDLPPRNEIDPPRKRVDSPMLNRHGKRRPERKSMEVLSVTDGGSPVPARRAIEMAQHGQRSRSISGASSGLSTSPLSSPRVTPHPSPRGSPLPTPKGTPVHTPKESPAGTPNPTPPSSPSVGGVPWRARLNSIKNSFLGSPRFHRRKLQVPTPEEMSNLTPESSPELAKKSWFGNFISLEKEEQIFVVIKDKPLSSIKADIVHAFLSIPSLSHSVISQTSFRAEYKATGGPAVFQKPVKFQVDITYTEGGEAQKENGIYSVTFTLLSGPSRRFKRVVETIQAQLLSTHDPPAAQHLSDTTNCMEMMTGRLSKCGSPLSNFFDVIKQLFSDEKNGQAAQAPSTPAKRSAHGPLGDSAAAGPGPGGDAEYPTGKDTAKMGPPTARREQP", "sequence of UniProt P36897 (whole entry, looked up)": "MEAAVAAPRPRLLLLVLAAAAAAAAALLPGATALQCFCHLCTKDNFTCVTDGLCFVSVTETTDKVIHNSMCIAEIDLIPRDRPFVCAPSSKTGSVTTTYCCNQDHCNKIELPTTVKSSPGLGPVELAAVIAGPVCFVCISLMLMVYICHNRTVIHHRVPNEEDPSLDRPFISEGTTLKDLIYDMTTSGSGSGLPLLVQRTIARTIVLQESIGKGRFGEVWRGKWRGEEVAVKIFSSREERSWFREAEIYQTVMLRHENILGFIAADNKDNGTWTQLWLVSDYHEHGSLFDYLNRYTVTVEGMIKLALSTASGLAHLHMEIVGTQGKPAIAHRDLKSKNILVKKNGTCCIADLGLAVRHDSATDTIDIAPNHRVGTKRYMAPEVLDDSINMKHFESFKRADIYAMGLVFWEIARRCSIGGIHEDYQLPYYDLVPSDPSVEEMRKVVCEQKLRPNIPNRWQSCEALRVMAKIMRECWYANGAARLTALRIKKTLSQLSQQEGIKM", "sequence of UniProt Q15835 (whole entry, looked up)": "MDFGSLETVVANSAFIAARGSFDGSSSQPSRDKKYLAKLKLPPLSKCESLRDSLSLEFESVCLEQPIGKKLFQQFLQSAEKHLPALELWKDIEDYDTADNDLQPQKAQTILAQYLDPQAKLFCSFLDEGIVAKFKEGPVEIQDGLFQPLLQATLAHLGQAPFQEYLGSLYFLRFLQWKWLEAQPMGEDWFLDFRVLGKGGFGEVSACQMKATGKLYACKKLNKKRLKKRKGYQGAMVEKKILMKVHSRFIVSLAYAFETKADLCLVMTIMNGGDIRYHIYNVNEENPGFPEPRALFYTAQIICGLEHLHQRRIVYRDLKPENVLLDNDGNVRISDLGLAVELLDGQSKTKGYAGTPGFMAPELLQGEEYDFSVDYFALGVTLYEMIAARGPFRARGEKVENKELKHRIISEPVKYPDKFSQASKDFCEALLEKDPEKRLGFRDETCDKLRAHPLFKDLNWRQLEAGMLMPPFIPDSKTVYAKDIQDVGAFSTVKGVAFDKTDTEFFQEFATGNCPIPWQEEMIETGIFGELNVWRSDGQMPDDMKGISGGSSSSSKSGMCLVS"}
{"data": "Set 1", "Compound": "COc1cc(-c2cn(C3CCc4c(F)cccc4N(CC(F)(F)F)C3=O)nn2)ccc1-n1cnc(C)c1 (stereo not drawn)", "technique": "competition with immobilised ligand", "tested at": "1 µM"}
{"target": "BRSK2 (Homo sapiens, UniProt Q8IWQ3)", "assay": "cell-free assay", "remaining binding [%]": 100}
{"target": "MAP3K20 (Homo sapiens, UniProt Q9NYL2)", "assay": "cell-free assay", "remaining binding [%]": 100}
{"target": "CHEK2 (Homo sapiens, UniProt O96017)", "assay": "cell-free assay", "remaining binding [%]": 100}
{"target": "eIF-2-alpha kinase GCN2, C-terminal kinase domain (EIF2AK4, Homo sapiens, UniProt Q9P2K8, S808G)", "assay": "cell-free assay", "remaining binding [%]": 100}
{"target": "PIK3C2G (Homo sapiens, UniProt O75747)", "assay": "cell-free assay", "remaining binding [%]": 72}
{"target": "PIK3CA (Homo sapiens, UniProt P42336, I800L)", "assay": "cell-free assay", "remaining binding [%]": 66}
{"target": "FLT3 (Homo sapiens, UniProt P36888, F691L/ITD)", "assay": "cell-free assay", "remaining binding [%]": 82}
{"target": "EIF2AK1 (Homo sapiens, UniProt Q9BQI3)", "assay": "cell-free assay", "remaining binding [%]": 100}
{"target": "TGFBR1 (Homo sapiens, UniProt P36897)", "assay": "cell-free assay", "remaining binding [%]": 100}
{"target": "PDGFRA (Homo sapiens, UniProt P16234)", "assay": "cell-free assay", "remaining binding [%]": 100}
{"target": "Mast/stem cell growth factor receptor Kit, autoinhibited (KIT, Homo sapiens, UniProt P10721)", "assay": "cell-free assay", "remaining binding [%]": 100}
{"target": "PIP5K1C (Homo sapiens, UniProt O60331)", "assay": "cell-free assay", "remaining binding [%]": 90}
{"target": "DCLK1 (Homo sapiens, UniProt O15075)", "assay": "cell-free assay", "remaining binding [%]": 100}
{"target": "EGFR (Homo sapiens, UniProt P00533)", "assay": "binding", "remaining binding [%]": 0}
{"target": "TLK2 (Homo sapiens, UniProt Q86UE8)", "assay": "cell-free assay", "remaining binding [%]": 100}
{"target": "WNK1 (Homo sapiens, UniProt Q9H4A3)", "assay": "cell-free assay", "remaining binding [%]": 100}
{"target": "MYLK3 (Homo sapiens, UniProt Q32MK0)", "assay": "cell-free assay", "remaining binding [%]": 92}
{"target": "GRK1 (Homo sapiens, UniProt Q15835)", "assay": "cell-free assay", "remaining binding [%]": 99}
{"data": "Set 2", "partner": "ARF22 498-598 (Arabidopsis thaliana, UniProt Q9C8N7)", "technique": "two-hybrid", "baseline": "out of 4 tests", "reading": "higher = firmer interaction", "B1": "IAA12 (Arabidopsis thaliana, UniProt Q38830); chain MRGVSELEVGKSNLPAESELELGLGLSLGGGAWKERGRILTAKDFPSVGSKRSAESSSHQGASPPRSSQVVGWPPIGLHRMNSLVNNQAMKAARAEEGDGEKKVVKNDELKDVSMKVNPKVQGLGFVKVNMDGVGIGRKVDMRAHSSYENLAQTLEEMFFGMTGTTCREKVKPLRLLDGSSDFVLTYEDKEGDWMLVGDVPWRMFINSVKRLRIMGTSEASGLAPRRQEQKDRQRNNPV", "B2": "IAA16 (Arabidopsis thaliana, UniProt O24407); chain MINFEATELRLGLPGGNHGGEMAGKNNGKRGFSETVDLKLNLSSTAMDSVSKVDLENMKEKVVKPPAKAQVVGWPPVRSFRKNVMSGQKPTTGDATEGNDKTSGSSGATSSASACATVAYVKVSMDGAPYLRKIDLKLYKTYQDLSNALSKMFSSFTIGNYGPQGMKDFMNESKLIDLLNGSDYVPTYEDKDGDWMLVGDVPWEMFVDSCKRIRIMKGSEAIGLAPRALEKCKNRS", "B3": "ARF18 482-602 (Arabidopsis thaliana, UniProt Q9C5W9); chain QKKQQTSRSRTKVQMQGIAVGRAVDLTLLKSYDELIDELEEMFEIQGQLLARDKWIVVFTDDEGDMMLAGDDPWNEFCKMAKKIFIYSSDEVKKMTTKLKISSSLENEEYGNESFENRSRG", "B4": "ARF6 790-935 (Arabidopsis thaliana, UniProt Q9ZTX8); chain SENPQSNTFVKVYKSGSFGRSLDISKFSSYHELRSELARMFGLEGQLEDPVRSGWQLVFVDRENDVLLLGDDPWPEFVSSVWCIKILSPQEVQQMGKRGLELLNSAPSSNNVDKLPSNGNCDDFGNRSDPRNLGNGIASVGGSFNY", "B5": "ARF1 538-665 (Arabidopsis thaliana, UniProt Q8L7G0); chain SRQIRSCTKVHMQGSAVGRAIDLTRSECYEDLFKKLEEMFDIKGELLESTKKWQVVYTDDEDDMMMVGDDPWNEFCGMVRKIFIYTPEEVKKLSPKNKLAVNARMQLKADAEENGNTEGRSSSMAGSR", "Construct (chain)": "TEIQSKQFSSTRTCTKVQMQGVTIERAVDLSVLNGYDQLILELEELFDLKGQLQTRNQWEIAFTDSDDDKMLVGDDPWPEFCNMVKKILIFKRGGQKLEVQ"}
{"Molecule": "B1 (IAA12)", "positive tests": 1}
{"Molecule": "B2 (IAA16)", "positive tests": 3}
{"Molecule": "B3 (ARF18 482-602)", "positive tests": 1}
{"Molecule": "B4 (ARF6 790-935)", "positive tests": 0}
{"Molecule": "B5 (ARF1 538-665)", "positive tests": 0}
{"data": "Set 3", "cell line": "mouse MPNST tumor cells", "technique": "high-content immunofluorescence imaging", "refers to": "nuclear SOX9", "tested at": "10 µM", "time": "12 h", "notes": "mean of 2 replicates", "baseline": "DMSO control", "reading": "higher = more nuclear SOX9"}
{"SMILES": "COc1cc(-c2cn(C)c(=O)c3cnccc23)c(OC)cc1CN(C)C", "nuclear SOX9 intensity": "106 % of DMSO and 107 % of DMSO"}
{"SMILES": "Cc1c(C(=O)NN2CCS(=O)(=O)CC2)nn(-c2ccc(Cl)cc2Cl)c1-c1ccc(C#CCCC#N)cc1", "nuclear SOX9 intensity": "89.5 % of DMSO"}
{"SMILES": "CC(C)CNc1nc(-c2cccc3ncccc23)cn2c(-c3ccc(C(=O)NC4CC4)cc3)cnc12", "nuclear SOX9 intensity": "139 % of DMSO"}
{"data": "Set 4", "target": "RING finger protein unkempt homolog, zinc fingers 1-6, GST-SBP tag (UNK, Homo sapiens, UniProt Q9C0B0, residues 30-357)", "technique": "RNA Bind-n-Seq", "form": "RNA", "sample": "in vitro", "tested at": "not given", "notes": "RNA with constant flanks, human-mouse chimeric sites, ends assumed", "baseline": "input RNA pool", "reading": "higher = stronger binding", "all sequences stand within": "GGGAGUUCUACAGUCCGACGAUC … CAACAGAGGAUUGAGCAUCA", "Residues (chain)": "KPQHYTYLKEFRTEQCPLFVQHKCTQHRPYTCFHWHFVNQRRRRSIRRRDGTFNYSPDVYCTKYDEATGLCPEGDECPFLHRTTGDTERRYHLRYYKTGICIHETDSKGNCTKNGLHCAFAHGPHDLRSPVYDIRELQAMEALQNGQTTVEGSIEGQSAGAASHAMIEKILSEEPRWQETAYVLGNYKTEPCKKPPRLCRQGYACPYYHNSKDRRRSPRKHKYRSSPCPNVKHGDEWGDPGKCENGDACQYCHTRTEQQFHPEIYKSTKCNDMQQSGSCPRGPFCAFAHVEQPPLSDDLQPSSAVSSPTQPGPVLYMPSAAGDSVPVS"}
{"Oligonucleotide": "GAAACAUUUAAAUUUAAAGAAGCUGUUGUUCUAGGAAGUACGGACUUUCUAGAAGAUGAUAUAGAGAAAAUUGUAGAAGAACUGGGGAAAGAGUAUAAAGGCAAUGCCUACCAUCUGAUG", "bound/input enrichment [ratio]": 1.44}
{"Oligonucleotide": "ACCAUUUUCGCGGUUCAGGCUUUGUGUGUAGUUCACUUACGGUAUUAAAUUAUUAUUCUGCUUAGCUUAAAGUAAGGAUAAUUGCAUUUAAAGAGGUUACUGAAUGUUACUCUGAAACUU", "bound/input enrichment [ratio]": 0.299}
{"Oligonucleotide": "GCGGCAGAAUCAUGGAGGACAUAAUGCAGCUCCCCAAAGCGCGCGUCAACGCCAGCAUGUUACCACAGUAUAUCGACCGGCCCGUGUGCUUCGUAGGGAAGCUGGAAAAGAUUCAUCCCA", "bound/input enrichment [ratio]": 0.148}
{"Oligonucleotide": "GCCACCAGAUCCCAGAAACAUGACCCUUGCUGCCUACAAAGAGAAGAUGAAGGAGCUCCCGCUGGUGUCCUUGUUCUGCUCUUGCUUCCUGGCCGAUCCCCUGAAUAAGUCGUCCUACAA", "bound/input enrichment [ratio]": 0.231}
{"Oligonucleotide": "AAAGAACUACUGAGGCAAGGCAGCAAAUUUAGGAGAGACAUUUCAACAAUAUUGAUAGAGUUAGGAUUCCAAAUUAAAAAGAAAACUAAAAGAUUGUACAUCAACAAAGCCAAUAUCUGG", "bound/input enrichment [ratio]": 7.08}
{"Oligonucleotide": "GGCUGCUGGUGACUGUCCUGGAGUGGCUGGAGUUCCCGCCGGAGCGCGGCCAGACUAAUUUUAGAAAAUGCCAAGUAGGAAAUUUGCUGAGGGUGAAGUGGUAAGAGGCCGAUGGCCUGG", "bound/input enrichment [ratio]": 4.62}
{"Oligonucleotide": "AGGAGGAGGUUAAAGGGUGAGAGUGGGGUGGAAGACUGUGUCAUGGCCCUAGAAACCCUGUUCAGUGUCCUGCUUUCUCUGUGCAGACUGAUGGCCCCUUACACGCCCUUUCUGACUGAG", "bound/input enrichment [ratio]": 0.0503}
{"Oligonucleotide": "CUGUGACCACAAGAUCCUACCUGAGUGGCAGCUGAAGUUGACUCCCUCUCCUUGCCUGCCUAGUUUCCCACUGCCCCCCCAUCCCCCAGUGUCGGCUGAGAUGUUGCCUCUGCACGGUUC", "bound/input enrichment [ratio]": 2.11}
{"data": "Set 5", "target": "Interferon regulatory factor 3, full length, phosphomimetic (IRF3, Homo sapiens, UniProt Q14653, residues 1-427, S386D/S396D/S398D/S402D/T404D/S405D)", "technique": "protein-binding microarray", "form": "double-stranded DNA, one strand shown", "sample": "in vitro", "tested at": "2540 nM top", "notes": "60-bp whole probe", "together with": "salmon DNA 0.4 mg/ml", "baseline": "random background probes", "reading": "higher = stronger binding", "all sequences stand within": "GCCTAGCAC … GTCTTGATTCGCTTGACGCTGCTG", "Construct (chain)": "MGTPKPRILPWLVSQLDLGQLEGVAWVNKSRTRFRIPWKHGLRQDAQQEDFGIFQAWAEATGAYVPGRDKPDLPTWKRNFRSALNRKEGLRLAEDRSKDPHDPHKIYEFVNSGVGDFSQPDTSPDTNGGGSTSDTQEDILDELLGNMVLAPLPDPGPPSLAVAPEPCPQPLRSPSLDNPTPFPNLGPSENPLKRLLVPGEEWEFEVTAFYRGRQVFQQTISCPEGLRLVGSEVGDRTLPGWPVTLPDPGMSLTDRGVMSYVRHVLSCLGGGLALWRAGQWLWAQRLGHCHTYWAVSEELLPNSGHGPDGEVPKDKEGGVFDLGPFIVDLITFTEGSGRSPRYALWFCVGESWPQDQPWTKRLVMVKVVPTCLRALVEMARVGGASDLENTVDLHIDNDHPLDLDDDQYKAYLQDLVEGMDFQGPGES"}
{"Oligonucleotide": "TTAGGACTGGACTATCGGTTTGTGCTA", "fitted relative affinity [z-score]": 0.0869}
{"Oligonucleotide": "TTAGGTCTCCTTCTCCTCTAGTGCTAG", "fitted relative affinity [z-score]": 4.19}
{"Oligonucleotide": "GACGATATCGGGTATCTAGACGTGCTA", "fitted relative affinity [z-score]": 0.25}
{"Oligonucleotide": "GACGGTTTCCTTCTCCTGTCGTGCTAG", "fitted relative affinity [z-score]": 10.4}
{"Oligonucleotide": "TCAAATTTACTTTCTACACTGTGCTAG", "fitted relative affinity [z-score]": 1.88}
{"Oligonucleotide": "TTATAACTGGGGTATCGATTAGTGCTA", "fitted relative affinity [z-score]": -0.0752}
{"Oligonucleotide": "TTAGGTTTCGGTTCCGGTTAGTGCTAG", "fitted relative affinity [z-score]": 10.4}
{"Oligonucleotide": "GACGGTATCCTTATCCTGATGTGCTAG", "fitted relative affinity [z-score]": 4.87}
{"note": "Repeated from above (set 2):"}
{"Molecule": "B2 (IAA16)", "positive tests": 3}
{"Molecule": "B3 (ARF18 482-602)", "positive tests": 1}
